Assay results from different studies.
Numbered parts are unrelated; each lists some results of a single study.

Block 1
Target: Replicase polyprotein 1ab, nsp13 helicase (rep, Severe acute respiratory syndrome coronavirus 2, UniProt P0DTD1)
Mode: inhibitor
Concentration: 20 µM
| SMILES | inhibition |
| --- | --- |
| COc1ccc(NS(=O)(=O)c2ccc(I)cc2)cc1N1CCN(C)CC1 | 3.16% |
| COc1cc(NS(=O)(=O)c2ccc(N)cc2)ncn1 | 2.95% |
| N[C@@H](Cc1ccc(B(O)O)cc1)C(=O)O | 5.43% |
| CN[C@@H]1[C@@H](O)[C@@H](O[C@@H]2[C@@H](O)[C@H](O[C@H]3O[C@H](CN)[C@@H](O)[C@H](O)[C@H]3O)[C@@H](N)C[C@H]2NC(=O)[C@@H](O)CN)OC[C@]1(C)O | 4.97% |
| Oc1cccc(-c2nc(N3CCOCC3)c3oc4ncccc4c3n2)c1 | -3.49% |
| N[C@@H](CSC(c1ccccc1)(c1ccccc1)c1ccccc1)C(=O)O | 0.67% |
| CCCCCCCCCCCCCCCC(=O)OC[C@H](O)[C@H]1OC(=O)C(O)=C1O | 19.3% |
| Cc1cccc(C(=O)O)c1O | 0.96% |
| Cc1cc(SCc2sc(-c3ccc(C(F)(F)F)c(F)c3)nc2C)ccc1OCC(=O)O | 13.1% |
| COc1ccc2c(NC(=O)Nc3cccc(C(F)(F)F)n3)ccnc2c1 | 2.62% |
| CCOc1c2c(c(OCC)c3ccccc13)C(=O)N(c1ccc(CC(=O)NS(=O)(=O)c3ccccc3)cc1)C2 | 3.37% |
| CC[C@H](C)[C@H](N)C1=N[C@H](C(=O)N[C@@H](CC(C)C)C(=O)N[C@H](CCC(=O)O)C(=O)N[C@H](C(=O)N[C@H]2CCCCNC(=O)[C@H](CC(N)=O)NC(=O)[C@@H](CC(=O)O)NC(=O)[C@H](Cc3cnc[nH]3)NC(=O)[C@@H](Cc3ccccc3)NC(=O)[C@H]([C@@H](C)CC)NC(=O)[C@@H](CCCN)NC2=O)[C@@H](C)CC)CS1 | 0.12% |
| COc1ccc(-c2cc(=O)c3c(O)cc(O)cc3o2)cc1O | 1.81% |
| CC1/C=C/C=C/C=C/C=C/C=C/C=C/C=C/C(OC2O[C@H](C)[C@@H](O)[C@H](N)[C@@H]2O)CC(O)C(C(=O)O)C(O)CC(=O)CC(O)CC(O)CC(O)CC(=O)CCCC(=O)CC(=O)OC1C(C)CC(C)C(O)CC(=O)c1ccc(N)cc1 (some centres unmarked) | 74% |
| O=C(Nc1cccc(Cl)c1)Nc1ncc(CCNc2ncnc3ccsc23)s1 | 7.5% |
| CC(=O)O[C@H]1C[C@@H]2CC[C@@H]3[C@H](CC[C@@]4(C)[C@H]3C[C@H]([N+]3(C)CCCCC3)[C@@H]4OC(C)=O)[C@@]2(C)C[C@@H]1[N+]1(C)CCCCC1 | 8.91% |
| C1CCc2nnnn2CC1 | 2.52% |
| CN(C)CCn1cc(S(=O)(=O)c2cccc(F)c2)c2cccnc21 | 10.3% |
| CC(C)SC(=N)N | 1.29% |
| O=C(O)c1cn(-c2ccc(F)cc2)c2cc(N3CCNCC3)c(F)cc2c1=O | 2.71% |
| O=C(c1cccc(Cl)c1F)N1CCN(Cc2cccc(Nc3nccs3)n2)CC1 | 1.68% |
| CCCCc1ccc(C(N)=O)nc1 | 25.2% |
| CNCCc1cnc[nH]1 | -0.67% |
| C=Cc1c(C)c2cc3nc(c(CC(=O)O)c4[nH]c(cc5nc(cc1[nH]2)C(C)=C5CC)c(C)c4C(=O)O)[C@@H](CCC(=O)O)[C@@H]3C | 80.5% |
| C=CCc1ccc(O)c(-c2ccc(O)c(CC=C)c2)c1 | 2.92% |

Block 2
Target: Hepatocyte nuclear factor 3-beta, forkhead domain (FOXA2, Homo sapiens, UniProt Q9Y261, residues 142-269)
Method: protein-binding microarray
Form: double-stranded DNA, one strand shown
Matrix: in vitro
Concentration: not given
Setting: k-mer, scored over probes, only values ≥0.25
Reading: higher = stronger binding
Target sequence (chain): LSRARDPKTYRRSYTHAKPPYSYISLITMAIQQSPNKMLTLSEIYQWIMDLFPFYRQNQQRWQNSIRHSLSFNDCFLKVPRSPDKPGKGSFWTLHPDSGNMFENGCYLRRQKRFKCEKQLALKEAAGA
| Oligonucleotide | E-score |
| --- | --- |
| AGTCTTAT | 0.349 |
| ATAATACA | 0.374 |
| CATATACG | 0.325 |
| CATCACTA | 0.275 |
| GTGTAAAC | 0.317 |
| CTACAATC | 0.274 |
| CATTGTTA | 0.276 |
| CAATATTG | 0.325 |

Block 3
Target: TAR DNA-binding protein 43, full length, His tag (TARDBP, Homo sapiens, UniProt Q13148, residues 1-414)
Method: RNA Bind-n-Seq
Form: RNA
Matrix: in vitro
Concentration: 20 nM
Setting: 6-mer, flanks averaged, single round
Added: 150 mM KCl
Reference: input library
Reading: higher = stronger binding
| Oligonucleotide | 6-mer enrichment (R) |
| --- | --- |
| CGUCAU | 0.612 |
| UCAUUC | 0.523 |
| UCUACA | 0.547 |
| UUACAG | 0.637 |
| CCGCCC | 0.656 |
| CAUGUC | 0.627 |
| GGCCCU | 0.888 |
| CUACAU | 0.564 |

Block 4
Cell line: HEK-293T-ACE2
Concentration: concentration not given
Reference: vehicle
| Compound | cell number |
| --- | --- |
| CN(C)CCC(c1ccc(Br)cc1)c1ccccn1.O=C(O)/C=C\C(=O)O (centres unmarked) | 108% |
| Cl.O=C1[C@@H]2[C@H]3CC[C@H](C3)[C@@H]2C(=O)N1C[C@@H]1CCCC[C@H]1CN1CCN(c2nsc3ccccc23)CC1 | 96.9% |
| NC(=O)CCC(N)C(=O)O (racemic) | 103% |

Block 5
Target: Replicase polyprotein 1ab, main protease (rep, Severe acute respiratory syndrome coronavirus 2, UniProt P0DTD1)
Effect on: enzyme activity
Mode: inhibitor
Concentration: 20 µM
Setting: hit confirmation, no DTT
| SMILES | inhibition [%] |
| --- | --- |
| N=C(N)NN=C1C=CC(=NNC(N)=S)C=C1 | 93.3 |
| O=C1OC2(c3cc(I)c(O)c(I)c3Oc3c2cc(I)c(O)c3I)c2c(Cl)c(Cl)c(Cl)c(Cl)c21 | 86.4 |
| CC(Cc1ccc(O)c(O)c1)C(C)Cc1ccc(O)c(O)c1 (centres unmarked) | 101 |

Block 6
Target: RNA binding protein fox-1 homolog 2, RRM domain, GST-SBP tag (RBFOX2, Homo sapiens, UniProt O43251-10, residues 100-194)
Method: RNA Bind-n-Seq
Form: RNA
Matrix: in vitro
Concentration: 365 nM
Setting: natural RNA segment, single round, ends assumed
Reference: no-protein control
Reading: higher = stronger binding
All sequences stand within: GGGAGUUCUACAGUCCGACGAUC … UGGAAUUCUCGGGUGCCAA
Construct (chain): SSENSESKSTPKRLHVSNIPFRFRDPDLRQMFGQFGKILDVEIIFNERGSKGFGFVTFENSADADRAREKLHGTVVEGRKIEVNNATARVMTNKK
| Oligonucleotide | RBNS enrichment (R) |
| --- | --- |
| ACCCCUGGGUUGUGGAGGGAAAUUGGCUCAGAGAUGGACAACCUGGCAACUGUGAGUCCCUGCUUCCCGACACCAGCCUCAUGGAAUAUGCAACAACUCCUGUACCCCAG | 0.6 |
| CUCCUCAAGACAGCCGAAGGGUGGGAUUGGUGCCGCUCUGGGAAGCGUGGCCCCAGGAGUUUUGUCCUCUGCAGUUUUUAAUGCAAGUUCACUGCCACUUUGACAAAAGC | 0.698 |
| UGGCGCAGCCGAGGCGCAGGCCGAGUGGGCCGCCAGGACCAAGCGAGGUGGACCCCGAAACGGACGGCCCGGAGCCCGCACCAGCCCCGCGCCUACCCGGGCCGCCCCCG | 0.224 |
| UAACAUUGCUGUCUGUAUGUCGUGUAUGCUAGGUGAUAUCCUCAGUAGGGAUUGACUACUAGACUGUGUGUUUUAUCAAAGUGUGUAAGAAUAAAAACUCACUUGCACGA | 0.601 |
| UUGAGUUUGUAGCUUAGAAUUGGGAGGAUACUUAACAUCUGGAAGACAAGUUCAUUUCAUCUUGAGAUCAUGGUGAAAUAUUUUGGAUAUAUAAAUUCCUUAAGCUAUUG | 0.326 |
| GAAGCAUGGGCUGGGUUCCGGUUCAUCCUCCUCCACCCUGCCGUGUGUGUGGGCACAAGAGGACAUCUAACCACCUGCUCCUUGGAGGAGGCCCCCAGGGGUGGUAGAGG | 1.48 |
| CUGUCCCACUCCCACAUGUCUGGGCACCUGCCCUGGGCUGAGGCCAGGCUGCUCCAGGGGCCUCCUGCGCCCUCACCUGCCACAGAGCAACCCAGGUUAAAUACAGCCCA | 0.318 |
| AAAAUCUGAAUCCAUAAGCGUUUAGAACAACAUCAGUUAGAGUUUGAGCAUUAUUCAGCAUUAGGGAAACCACACACUGGUGAGAGGUCUUUCAGUGUACUAAAAGGCAG | 1.03 |

Further values, each from its own experiment
| Oligonucleotide | target | assay | test system | setting | scale | endpoint | result |
| --- | --- | --- | --- | --- | --- | --- | --- |
| GAGTCGTCTCGTCAGCACCATAACACCGTAGAGCACTCAGGTC | Sox, HMG box (Pigoraptor chileana) | Spec-seq | double-stranded DNA, one strand shown, in vitro | not given, whole probe, mean of replicates | reference: not given, lower = stronger binding | relative binding energy | -0.34 ln ratio |

For quick reference, copied from above (block 2):
| Oligonucleotide | E-score |
| --- | --- |
| AGTCTTAT | 0.349 |
| ATAATACA | 0.374 |
| CATATACG | 0.325 |
| CATCACTA | 0.275 |
| GTGTAAAC | 0.317 |
| CTACAATC | 0.274 |
